Published values pooled from the literature.
Parts stem from different laboratories: compare values within a part only.
UniProt Q9Y2H1, sequence (whole entry, looked up): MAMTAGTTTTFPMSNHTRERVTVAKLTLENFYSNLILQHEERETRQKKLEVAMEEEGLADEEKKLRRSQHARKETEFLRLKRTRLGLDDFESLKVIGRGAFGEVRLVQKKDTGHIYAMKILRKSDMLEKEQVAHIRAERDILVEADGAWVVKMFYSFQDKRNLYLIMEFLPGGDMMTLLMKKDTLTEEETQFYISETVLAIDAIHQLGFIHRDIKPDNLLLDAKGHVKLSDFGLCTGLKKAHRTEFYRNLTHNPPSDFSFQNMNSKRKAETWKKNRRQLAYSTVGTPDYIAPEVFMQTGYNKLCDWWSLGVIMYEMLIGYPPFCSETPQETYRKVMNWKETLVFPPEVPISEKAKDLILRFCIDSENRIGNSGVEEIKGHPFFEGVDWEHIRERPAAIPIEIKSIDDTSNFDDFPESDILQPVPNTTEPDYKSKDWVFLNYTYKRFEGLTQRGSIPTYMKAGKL
UniProt P29323, sequence (whole entry, looked up): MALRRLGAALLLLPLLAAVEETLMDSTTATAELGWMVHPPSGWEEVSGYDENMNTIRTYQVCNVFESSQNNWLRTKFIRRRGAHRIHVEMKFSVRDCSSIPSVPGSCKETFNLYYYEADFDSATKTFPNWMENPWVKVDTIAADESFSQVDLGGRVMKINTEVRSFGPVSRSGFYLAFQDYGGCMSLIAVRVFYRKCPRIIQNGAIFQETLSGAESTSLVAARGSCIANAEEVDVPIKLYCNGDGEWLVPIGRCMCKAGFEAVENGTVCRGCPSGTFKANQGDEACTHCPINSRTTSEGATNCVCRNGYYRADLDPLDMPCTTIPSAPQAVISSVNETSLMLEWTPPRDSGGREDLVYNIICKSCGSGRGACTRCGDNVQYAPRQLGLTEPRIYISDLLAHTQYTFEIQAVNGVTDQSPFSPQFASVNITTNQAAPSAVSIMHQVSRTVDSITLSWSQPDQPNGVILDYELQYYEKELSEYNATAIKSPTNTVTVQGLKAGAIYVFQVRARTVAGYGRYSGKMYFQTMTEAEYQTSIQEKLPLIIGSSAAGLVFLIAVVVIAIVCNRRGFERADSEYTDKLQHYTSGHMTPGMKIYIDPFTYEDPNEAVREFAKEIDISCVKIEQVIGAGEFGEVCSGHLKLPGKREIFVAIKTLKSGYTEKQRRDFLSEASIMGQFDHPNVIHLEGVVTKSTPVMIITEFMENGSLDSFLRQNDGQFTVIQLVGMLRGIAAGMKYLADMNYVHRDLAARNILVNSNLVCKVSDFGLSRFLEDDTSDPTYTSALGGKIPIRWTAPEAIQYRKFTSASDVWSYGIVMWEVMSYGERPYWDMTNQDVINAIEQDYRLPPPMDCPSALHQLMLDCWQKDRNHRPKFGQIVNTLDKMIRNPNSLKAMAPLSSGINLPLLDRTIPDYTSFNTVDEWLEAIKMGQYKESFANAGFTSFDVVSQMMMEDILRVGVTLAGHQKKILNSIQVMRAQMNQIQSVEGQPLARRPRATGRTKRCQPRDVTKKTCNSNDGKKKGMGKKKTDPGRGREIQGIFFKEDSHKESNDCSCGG
UniProt Q05397, sequence (whole entry, looked up): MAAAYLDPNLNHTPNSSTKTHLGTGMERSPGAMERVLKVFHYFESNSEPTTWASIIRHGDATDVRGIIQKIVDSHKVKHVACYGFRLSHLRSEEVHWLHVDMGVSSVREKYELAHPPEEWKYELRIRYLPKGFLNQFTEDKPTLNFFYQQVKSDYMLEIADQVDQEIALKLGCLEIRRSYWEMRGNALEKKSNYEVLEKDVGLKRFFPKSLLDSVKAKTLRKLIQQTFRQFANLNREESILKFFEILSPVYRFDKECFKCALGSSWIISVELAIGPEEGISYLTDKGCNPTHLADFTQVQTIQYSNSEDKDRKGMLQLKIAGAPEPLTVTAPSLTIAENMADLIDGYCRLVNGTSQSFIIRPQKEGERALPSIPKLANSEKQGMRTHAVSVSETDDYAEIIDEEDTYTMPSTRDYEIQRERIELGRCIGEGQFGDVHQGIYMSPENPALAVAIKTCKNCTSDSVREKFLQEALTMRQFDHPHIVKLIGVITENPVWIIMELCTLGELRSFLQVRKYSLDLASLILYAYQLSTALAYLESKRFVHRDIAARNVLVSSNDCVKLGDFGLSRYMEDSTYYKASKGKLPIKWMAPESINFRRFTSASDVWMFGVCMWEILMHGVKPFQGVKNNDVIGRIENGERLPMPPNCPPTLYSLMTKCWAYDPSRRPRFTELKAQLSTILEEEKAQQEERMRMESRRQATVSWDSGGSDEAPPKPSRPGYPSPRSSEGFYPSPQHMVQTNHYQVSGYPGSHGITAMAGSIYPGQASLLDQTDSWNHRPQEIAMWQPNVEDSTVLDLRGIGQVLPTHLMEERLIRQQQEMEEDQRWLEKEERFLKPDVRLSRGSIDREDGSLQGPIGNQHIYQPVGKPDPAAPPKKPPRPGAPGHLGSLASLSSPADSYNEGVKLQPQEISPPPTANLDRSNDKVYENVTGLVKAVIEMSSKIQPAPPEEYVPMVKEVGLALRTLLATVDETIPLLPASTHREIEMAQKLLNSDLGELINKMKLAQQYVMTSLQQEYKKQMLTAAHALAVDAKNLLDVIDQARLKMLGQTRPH
UniProt Q8NE63, sequence (whole entry, looked up): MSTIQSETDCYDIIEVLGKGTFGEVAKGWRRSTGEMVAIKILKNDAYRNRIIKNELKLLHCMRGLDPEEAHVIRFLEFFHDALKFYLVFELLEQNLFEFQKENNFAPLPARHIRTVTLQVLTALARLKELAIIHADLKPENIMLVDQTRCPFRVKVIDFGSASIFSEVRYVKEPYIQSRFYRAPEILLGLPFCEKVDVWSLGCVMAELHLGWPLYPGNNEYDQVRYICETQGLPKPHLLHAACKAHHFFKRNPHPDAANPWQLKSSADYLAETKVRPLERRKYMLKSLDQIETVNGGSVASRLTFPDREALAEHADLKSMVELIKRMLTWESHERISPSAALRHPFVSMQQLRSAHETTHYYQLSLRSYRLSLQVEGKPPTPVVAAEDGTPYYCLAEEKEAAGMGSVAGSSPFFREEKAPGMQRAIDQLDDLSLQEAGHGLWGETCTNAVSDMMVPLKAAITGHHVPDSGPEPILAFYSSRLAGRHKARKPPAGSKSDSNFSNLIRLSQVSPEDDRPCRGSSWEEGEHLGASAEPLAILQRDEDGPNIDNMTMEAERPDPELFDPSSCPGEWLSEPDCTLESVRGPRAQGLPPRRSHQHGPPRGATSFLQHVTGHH
UniProt Q8TBX8, sequence (whole entry, looked up): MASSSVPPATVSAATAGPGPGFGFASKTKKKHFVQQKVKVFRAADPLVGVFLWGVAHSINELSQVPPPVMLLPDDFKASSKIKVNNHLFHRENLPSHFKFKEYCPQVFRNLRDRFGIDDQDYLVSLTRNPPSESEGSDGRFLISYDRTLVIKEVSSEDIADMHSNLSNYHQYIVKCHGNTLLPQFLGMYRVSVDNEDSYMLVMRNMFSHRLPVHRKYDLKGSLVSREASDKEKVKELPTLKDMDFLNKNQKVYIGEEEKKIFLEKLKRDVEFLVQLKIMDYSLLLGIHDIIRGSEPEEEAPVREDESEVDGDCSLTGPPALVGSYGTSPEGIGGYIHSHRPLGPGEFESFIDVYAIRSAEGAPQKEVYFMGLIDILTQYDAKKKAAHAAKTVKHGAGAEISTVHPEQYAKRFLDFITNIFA

Study 1 — host: mouse; matrix: microsomes or S9; tested at: 2 µM; time: 0.5 h
SMILES | remaining compound [%]
Cc1c(Cl)cccc1NC(=O)Cn1c2c(c(=O)n3nc(-c4ccccc4)nc13)CCC2 | 9.88
Cc1ncc(S(=O)(=O)NCCc2nccnc2C)s1 | > 100
C[C@H]1CN(c2c(F)cc3c(=O)c(C(=O)O)cn4c3c2OC[C@@H]4C)C[C@H]1N | 84.3
COc1nc(C)cc(C)c1-c1nc2c([nH]1)CC(C)(C)CNC2=O | 78.4
Cc1nc(C(C)N(C)CCCS(=O)(=O)N(C)C)c(C)s1 (stereo not shown) | 52.8
C[C@H](Nc1nc(N)nc2[nH]cnc(=O)c12)c1cc2cccc(Cl)c2c(=O)n1-c1ccccc1 | 69.4
CC(C)CNCC(=O)Nc1ccc(C(=O)N2c3ccc(S(=O)(=O)N4CC(c5ccccc5)NC4=O)cc3CC2C)cc1 (stereo not shown) | 3.24
COc1cccc2c1OCC(C(=O)N1CCC3(CCCO3)CC1)C2 (stereo not shown) | 17
Cc1ccc(S(=O)(=O)n2c(N)nc3ccccc32)cc1 | 0.827
COc1ccc2c(/C=C3/C(=O)c4ccccc4S(=O)(=O)N3C)c[nH]c2c1 | 47.4

Study 2 — observed: enzyme activity; mode: inhibitor; tested at: 0.5 µM; relative to: control
Target: Serine/threonine-protein kinase BRSK2 (BRSK2, Homo sapiens, UniProt Q8IWQ3)
UniProt Q8IWQ3, sequence (whole entry, looked up): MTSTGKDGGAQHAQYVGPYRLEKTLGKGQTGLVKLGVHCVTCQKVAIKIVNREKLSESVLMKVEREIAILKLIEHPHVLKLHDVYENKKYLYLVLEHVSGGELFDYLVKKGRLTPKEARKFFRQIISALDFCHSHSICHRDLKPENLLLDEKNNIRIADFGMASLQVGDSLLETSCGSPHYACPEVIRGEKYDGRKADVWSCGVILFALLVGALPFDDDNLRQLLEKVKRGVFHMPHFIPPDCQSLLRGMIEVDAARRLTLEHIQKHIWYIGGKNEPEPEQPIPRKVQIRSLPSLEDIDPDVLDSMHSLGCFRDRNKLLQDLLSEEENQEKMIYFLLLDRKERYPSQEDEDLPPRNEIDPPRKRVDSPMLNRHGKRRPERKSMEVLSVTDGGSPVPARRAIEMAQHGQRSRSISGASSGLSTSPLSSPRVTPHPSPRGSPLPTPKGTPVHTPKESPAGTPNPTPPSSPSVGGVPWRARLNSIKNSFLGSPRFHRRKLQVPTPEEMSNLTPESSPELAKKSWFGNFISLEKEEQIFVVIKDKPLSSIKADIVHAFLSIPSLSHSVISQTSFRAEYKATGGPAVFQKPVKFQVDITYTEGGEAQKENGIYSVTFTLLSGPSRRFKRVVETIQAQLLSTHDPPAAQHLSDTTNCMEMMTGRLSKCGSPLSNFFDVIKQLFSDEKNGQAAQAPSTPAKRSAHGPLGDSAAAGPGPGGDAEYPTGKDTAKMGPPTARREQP
SMILES | remaining activity
COc1ccc(CNC(=O)Nc2ncc([N+](=O)[O-])s2)cc1 | 93.1%
Nc1ccc2ncnc(NCCc3ccc(Oc4ccccc4)cc3)c2c1 | 102%
Cn1sc(=O)n(Cc2ccccc2)c1=O | 99.4%
O=C1NC(=O)C(c2cn(CCCn3ccnc3)c3ccccc23)=C1Nc1ccccc1 | 93.6%
COc1cc2ncnc(Nc3ccc(Oc4ccccc4)cc3)c2cc1OC | 101%
O=C(O)c1ccc2c3c1cccc3c(=O)n1c3ccccc3nc21 | 90.4%
CCOC(=O)c1c(C)[nH]c(/C=C2\C(=O)Nc3ccccc32)c1C | 98.7%
N#CC(C#N)=C(N)/C(C#N)=C/c1ccc(O)cc1 | 101%
Cc1cccc(-c2[nH]c(C(C)(C)C)nc2-c2ccc3c(c2)OCO3)n1 | 99.3%
C#Cc1cccc(Nc2ncnc3cc(OCCOC)c(OCCOC)cc23)c1 | 100%
COc1cc2nccc(Oc3ccc(NC(=S)NC(=O)c4ccccc4C)cc3)c2cc1OC | 93%
Cc1ccc(Nc2nccc(N(C)c3ccc4c(C)n(C)nc4c3)n2)cc1S(N)(=O)=O | 101%
Nc1[nH]nc2nc3ccccc3nc12 | 96.5%
COc1ccc(C(=O)Nc2sc3c(c2C(N)=O)CCCC3)cc1OC | 97.9%
O=C(Nc1cccc(Nc2cc(Nc3cccc(C(F)(F)F)c3)ncn2)c1)C1CC1 | 95.8%

Study 3 — observed: cell-free assay; method: competition with immobilised ligand; tested at: 1 µM
Structure (SMILES): CCCCN(CCCC)C(=O)CN1C[C@H](c2cc(OC)c3c(c2)OCO3)[C@@H](C(=O)O)[C@@H]1CC(C)(C)CCC
target | remaining binding [%]
Phosphatidylinositol 5-phosphate 4-kinase type-2 gamma (PIP4K2C, Homo sapiens, UniProt Q8TBX8) | 100
Misshapen-like kinase 1 (MINK1, Homo sapiens, UniProt Q8N4C8) | 88.4
Phosphatidylinositol 4,5-bisphosphate 3-kinase catalytic subunit alpha isoform (PIK3CA, Homo sapiens, UniProt P42336, H1047Y) | 100
Ephrin type-B receptor 2 (EPHB2, Homo sapiens, UniProt P29323) | 100
Serine/threonine-protein kinase 38-like (STK38L, Homo sapiens, UniProt Q9Y2H1) | 100
Homeodomain-interacting protein kinase 4 (HIPK4, Homo sapiens, UniProt Q8NE63) | 100
Serine/threonine-protein kinase LATS2 (LATS2, Homo sapiens, UniProt Q9NRM7) | 100
Focal adhesion kinase 1 (PTK2, Homo sapiens, UniProt Q05397) | 100

Study 4 — observed: enzyme activity; mode: inhibitor; tested at: 10 µM
Target: Calcium/calmodulin-dependent protein kinase type II subunit alpha (CAMK2A, Homo sapiens, UniProt Q9UQM7)
UniProt Q9UQM7, sequence (whole entry, looked up): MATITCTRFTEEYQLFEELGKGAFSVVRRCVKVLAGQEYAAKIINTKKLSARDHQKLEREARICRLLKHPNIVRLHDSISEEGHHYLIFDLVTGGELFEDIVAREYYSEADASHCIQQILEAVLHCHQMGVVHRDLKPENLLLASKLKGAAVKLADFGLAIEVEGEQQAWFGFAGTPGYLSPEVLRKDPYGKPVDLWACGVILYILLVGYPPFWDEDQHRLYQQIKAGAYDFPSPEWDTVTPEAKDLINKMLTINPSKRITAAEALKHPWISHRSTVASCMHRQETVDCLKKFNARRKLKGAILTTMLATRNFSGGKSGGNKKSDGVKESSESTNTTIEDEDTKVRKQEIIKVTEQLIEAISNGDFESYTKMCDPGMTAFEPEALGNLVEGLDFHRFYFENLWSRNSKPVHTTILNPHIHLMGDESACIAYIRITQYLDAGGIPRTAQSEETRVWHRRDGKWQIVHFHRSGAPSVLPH
SMILES | inhibition
CC(=O)O[C@H]1CC[C@]2(C)C3=C(CC[C@H]2C1(C)C)[C@]1(C)CC[C@H]([C@@H](CCC=C(C)C)C(=O)O)[C@@]1(C)CC3 | 4%
C=C1C[C@@]23CC[C@H]4[C@@](C)(CCC[C@@]4(C)C(=O)O[C@@H]4O[C@H](CO)[C@@H](O)[C@H](O)[C@H]4O)[C@@H]2CC[C@]1(O[C@@H]1O[C@H](C)[C@@H](O)[C@H](O)[C@@H]1O[C@@H]1O[C@H](CO)[C@@H](O)[C@H](O[C@@H]2O[C@H](CO)[C@@H](O)[C@H](O)[C@H]2O)[C@H]1O)C3 | -40%
C=C[C@@]1(C)CC[C@H]2C(=CC[C@@H]3[C@]2(C)CCC[C@@]3(C)C(=O)O)C1 | 6%
CN(C(=O)CN(CCO)CC(=O)N(C)C(C)(C)Cc1ccccc1)C(C)(C)Cc1ccccc1 | -3%
CC(=O)O[C@@H]1CC[C@@]2(C)[C@@H](CC[C@]3(C)[C@@H]2C(=O)C=C2[C@@H]4[C@@H](C)[C@H](C)CC[C@]4(C)CC[C@]23C)[C@@]1(C)C(=O)O | 6%
C=CCC(=NOS(=O)(=O)O)S[C@@H]1O[C@H](CO)[C@@H](O)[C@H](O)[C@H]1O (stereo in doubt) | -41%
CC(=O)O[C@@H]1C(=O)C2=C(C(=O)C[C@H]3C(C)(C)C(=O)CC[C@]23C)[C@]2(C)C(=O)C[C@H]([C@H](C)CC(=O)CC(C)C(=O)O)[C@@]12C (stereo partly shown) | -6%
O=c1c(-c2ccc(O)cc2)coc2cc(O[C@@H]3O[C@H](CO)[C@@H](O)[C@H](O)[C@H]3O)cc(O)c12 | -1%
C#C[C@]1(O)CC[C@H]2[C@@H]3CCC4=CCCC[C@@H]4[C@H]3C(=C)C[C@@]21CC | -6%
CC(C)(C)c1cc(NC(=O)Nc2ccc(-c3cn4c(n3)sc3cc(OCCN5CCOCC5)ccc34)cc2)no1 | 11%
